Results gathered from unrelated publications.
Each line is one published result; not all experiments were run side by side. ≈ marks a conversion by molar mass, not a printed value.

For `COc1cc(Cc2cnc(N)nc2N)cc(OC)c1OC.O=c1[nH]cc(F)c(=O)[nH]1`, the MIC was 0.25 µg/mL (Streptococcus pneumoniae; broth microdilution; 24 h).
For `Cc1c(CN(C)C(=O)/C=C/c2cnc3c(c2)CC(N)C(=O)N3)oc2ccccc12` (stereo not drawn), the MIC was 32 µg/mL (≈ 82 µM) (Klebsiella pneumoniae; broth microdilution; AR-0098).
`CN1CCCNC(=O)c2cccc(c2)C(=O)NCCCN(C)CCCNc2cccc3c2C(=O)c2cccc(c2C3=O)NCCC1` — result for “log2 fold change”: -0.82 (SAS; RNA-Seq, refers to: FARP2 mRNA; 1 µM, 6 h; baseline: untreated cells).
`COc1c(NC(=O)c2ccc(NC(=O)[C@H](Cc3c[nH]nn3)NC(=O)c3ccc(NC(=O)/C(C)=C/c4ccc(O)cc4)cc3)cc2)ccc(C(=O)Nc2ccc(C(=O)O)c(O)c2)c1O` gave an MIC of 0.125 µg/mL (≈ 0.146 µM) (Salmonella enterica serovar Kentucky; broth microdilution; ciprofloxacin-sensitive).
With `CC[C@H]1OC(=O)[C@H](C)[C@@H](OC(=O)Cc2ccc(Cl)cc2)[C@H](C)[C@@H](O[C@@H]2O[C@H](C)C[C@H](N(C)C)[C@H]2O)[C@](C)(OC)C[C@@H](C)C(=O)[C@H](C)[C@@H](O)[C@]1(C)O` the MIC was > 32 µg/mL (Cryptococcus neoformans; microbial growth; ATCC208821).
With `C=CC(=O)Nc1cccc(Cn2ncc3cnc(Nc4cnn(CCOC)c4)nc32)c1` the binding was 75% (human SGK; KINOMEscan; 100 nM; baseline: control).
The MIC of `CC[C@H]1OC(=O)[C@H](C)[C@@H](OC(=O)c2ccc(N)cc2)[C@H](C)[C@@H](O[C@@H]2O[C@H](C)C[C@H](N(C)C)[C@H]2O)[C@](C)(OC)C[C@@H](C)C(=O)[C@H](C)[C@@H](O)[C@]1(C)O` is reported as > 32 µg/mL (Cryptococcus neoformans; microbial growth; ATCC208821).
For `COc1c(NC(=O)c2ccc(NC(=O)[C@H](Cc3c[nH]nn3)NC(=O)c3ccc(NC(=O)/C(C)=C/c4ccc(O)cc4)cc3)cc2)ccc(C(=O)Nc2ccc(C(=O)O)cc2)c1O`, the MIC was 0.25 µg/mL (≈ 0.298 µM) (Salmonella enterica serovar Kentucky; broth microdilution; ciprofloxacin-resistant).
`Nc1ncc(-c2cc(-c3cnn(CC(F)(F)F)c3)ncc2F)nc1C(=O)NC1CNCC(F)C1` (stereo not drawn) gave a remaining binding of 52% (DCAMKL3; KINOMEscan; 1 µM; baseline: DMSO control).
For `CC[C@H]1OC(=O)[C@H](C)[C@@H](OC(=O)Cc2cccc3ccccc23)[C@H](C)[C@@H](O[C@@H]2O[C@H](C)C[C@H](N(C)C)[C@H]2O)[C@](C)(OC)C[C@@H](C)C(=O)[C@H](C)[C@@H](O)[C@]1(C)O`, the MIC was > 32 µg/mL (Cryptococcus neoformans; microbial growth; ATCC208821).
`COC1CN([C@H]2CC[C@H]([C@@]3(C)Oc4c(Cl)cc(C(=O)NCc5c(SC)cc(C)[nH]c5=O)c(C)c4O3)CC2)C1`: “log2 fold change” 2.08 (RNA-seq, refers to: PLSCR4; human, whole blood; dose not given, 24 h; baseline: pretreatment baseline).
For `C/C(=C\c1ccc(O)cc1)C(=O)Nc1ccc(C(=O)N[C@@H](Cc2c[nH]nn2)C(=O)Nc2ccc(C(=O)Nc3ccc(C(=O)Nc4ccc(C(=O)O)cc4)c(O)c3)cc2)cc1`, the MIC was 0.25 µg/mL (≈ 0.309 µM) (Salmonella enterica serovar Kentucky; broth microdilution; ciprofloxacin-sensitive).
With `CCCC/C=C/C(=O)N[C@@H](Cc1cc(F)cc(F)c1)C(=O)N[C@H]1COC(=O)[C@@H]2CCCN2C(=O)[C@H](C)NC(=O)[C@@H]2CCCCN2C(=O)[C@@H]2CCCN2C1=O` the MIC was 0.006 µg/mL (≈ 0.00793 µM) (Streptococcus pneumoniae; microbial growth, broth dilution).
`COc1c(NC(=O)c2ccc(NC(=O)c3ccc(NC(=O)[C@H](Cc4c[nH]nn4)NC(=O)c4ccc(NC(=O)/C(C)=C/c5ccc(O)cc5)cc4)cc3)cc2O)ccc(C(=O)O)c1O` gave an MIC of 1 µg/mL (≈ 1.17 µM) (Salmonella enterica serovar Kentucky; broth microdilution; ciprofloxacin-resistant).
`CC(C)c1ccc(N(C)c2ccc3c(c2)OCC[C@H]3CNc2cnccc2C(=O)O)cc1` has an IC50 of 10.4 nM (COLO-741; cell growth or viability, ATP luminescence; 7 days).
The MIC of `CCCCC=CC(=O)NC(Cc1cc(F)cc(F)c1)C(=O)NC1COC(=O)C2CCCN2C(=O)C(C)NC(=O)C(C)N(C)C(=O)C2CCCN2C1=O` (stereo not drawn) is reported as 0.024 µg/mL (≈ 0.0328 µM) (Streptococcus pneumoniae; microbial growth, broth dilution).
With `CC1(C)C(NC(=O)C(=NOC2(C(=O)O)CC2)c2csc(N)n2)C(=O)N1OS(=O)(=O)O` (stereo not drawn) the MIC was 128 µg/mL (≈ 276 µM) (Klebsiella pneumoniae; ATCC 1716, ESBL; compound alone).
`CNS(=O)(=O)Nc1nccc(Cc2c(C)c3ccc(Oc4ncccc4F)cc3oc2=O)c1F` gave an IC50 of 24.9 nM (DV-90; cell viability; 7 days).

Some of these lines once more:
The MIC of `CC[C@H]1OC(=O)[C@H](C)[C@@H](OC(=O)c2ccc(N)cc2)[C@H](C)[C@@H](O[C@@H]2O[C@H](C)C[C@H](N(C)C)[C@H]2O)[C@](C)(OC)C[C@@H](C)C(=O)[C@H](C)[C@@H](O)[C@]1(C)O` is reported as > 32 µg/mL (Cryptococcus neoformans; microbial growth; ATCC208821).
